Published values of several laboratories.
± marks the error that the study gave.

CN1C(=O)[C@@H](Cc2ccc(O)c(I)c2)NC(=O)CNC(=O)[C@H](Cc2ccc3ccccc3c2)NC(=O)[C@H](CCCNC(=N)N)NC(=O)[C@H]1CCCNC(=O)c1ccc(CNC(=O)CN2CCN(CC(=O)O)CCN(CC(=O)O)CCN(CC(=O)O)CC2)cc1 [lutetium-177 labelled]
unbound fraction (ultrafiltration; human plasma): < 0.04

COc1ccc(NC(=O)N2CCCN3CCC(c4ccc(C#CC5CCCCC5)cc4)C3C2)cc1 (centres unmarked)
unbound fraction (equilibrium dialysis; CD-1 mouse plasma; 2 µM): < 0.0001

COc1ccc(CC(O)C(=O)O)cc1O (centres unmarked)
unbound fraction (ultrafiltration; rat plasma): 0.72

Nc1ccc(-c2ccc(F)cc2)cc1NC(=O)C1CCOCC1
unbound fraction (brain tissue): 0.06

COc1ccc(NC(=O)N2CCCN3CCC(c4ccc(C#CC5CCCC5)cc4)C3C2)cc1 (centres unmarked)
unbound fraction (equilibrium dialysis; CD-1 mouse plasma; 2 µM): 0.002

O=C(N[C@@H](Cc1ccc(OCCCCC2CCNCC2)cc1)C(=O)O)c1nc2ccccc2o1.O=C(O)C(F)(F)F
unbound fraction (rapid equilibrium dialysis; human platelet-free plasma; 2 µM, 24 h, 37 °C): 0.95 ± 0.21%

Cc1ccc(N2C(=O)c3ccccc3NC23C(=O)N(C)c2ccc(Br)cc23)cc1 (centres unmarked)
unbound fraction (human plasma): 0.043 ± 0.005

CC1=C(C=O)C(C)(C)CC=C1
unbound fraction (rapid equilibrium dialysis; rat plasma; 5 to 20 µM, 4 h): 0.08 to 0.13

Nc1ccc(-c2ccc(F)cc2)cc1NC(=O)N1CCOCC1
unbound fraction (brain tissue): 0.21

O=C(O)C(O)Cc1ccc(O)c(OS(=O)(=O)O)c1 (centres unmarked)
unbound fraction (ultrafiltration; rat plasma): 0.32

C=C(C)C(=O)Nc1ccc(-c2c(-c3ccc(Oc4nccc(C)n4)cc3)c3c(N)ncnc3n2C)cc1
unbound fraction (mouse plasma; 5 µM, 18 h): 0.0096

Cc1cnc(Nc2cc(C)c(C)c(C)c2)nc1Nc1ccc2oc(=O)[nH]c2c1
unbound fraction (rat plasma): 0.24%

CCN(c1nc(N[C@H](CC(N)=O)C(=O)NC)nc(N2CCN(c3ccccc3C#N)CC2)n1)C1CCCCC1
unbound fraction (plasma human): 0.118

Cc1ccc(NC(=O)N2CCCN3CCC(c4ccc(C#Cc5cccnc5)cc4)C3C2)cc1 (centres unmarked)
unbound fraction (equilibrium dialysis; CD-1 mouse plasma; 2 µM): 0.001

Brc1ccccc1-c1nnc(CSc2nnnn2-c2ccccc2)o1
unbound fraction (equilibrium dialysis; rat brain homogenate): 2.3%

O=C(c1ccccc1)c1cc(O)c(-c2cc(Cl)cc(Cl)c2)c(O)c1
unbound fraction (equilibrium dialysis; rat plasma; 500 ng/mL, pH 7.4, 37 °C): 0.0063

CCn1cc(-c2ccnc(Nc3ccc(N4CCNCC4)cc3)n2)c(-c2cccnc2)n1
unbound fraction (human plasma; 10 µM): 0.342

Repeated from above:
O=C(c1ccccc1)c1cc(O)c(-c2cc(Cl)cc(Cl)c2)c(O)c1
unbound fraction (equilibrium dialysis; rat plasma; 500 ng/mL, pH 7.4, 37 °C): 0.0063
